Experimental data collected from several papers.
Protocols differ between the studies behind these lines. Numbers after ± are the reported error.
CDK2 with cyclin A: Cyclin-dependent kinase 2, with cyclin A (CDK2, Homo sapiens, UniProt P24941)

The viability of `CC(=O)OC[C@H]1O[C@@H]([Se]Cc2ccc3ccccc3n2)[C@H](OC(C)=O)[C@@H](OC(C)=O)[C@@H]1OC(C)=O` is reported as 126 ± 5.5% (THP-1 macrophages (PMA-differentiated); WST-1; 10 µM, 24 h).
`C[C@H]1C[C@@H](N2C(=N)N[C@](C)(c3cccc(NC(=O)c4cccc(C#N)c4)c3Cl)CC2=O)CCO1` — result for phototoxicity: “negative” (Balb/c 3T3 fibroblast; up to 100 µg/mL).
`CO[C@H]1/C=C/O[C@@]2(C)Oc3c(C)c(O)c4c(O)c(c(/C=N/N5CCN(C)CC5)c(O)c4c3C2=O)NC(=O)/C(C)=C\C=C\[C@H](C)[C@H](O)[C@@H](C)[C@@H](O)[C@@H](C)[C@H](OC(C)=O)[C@@H]1C` gave an EC50 of 0.0642 µM (pooled human hepatocyte co-culture; mRNA induction, measured: CYP2C8 mRNA; 48 h).
`COc1cccc(-c2n[nH]c(SCc3ccccn3)n2)c1OC` — result for “micronuclei per binucleated cell”: 0.014 (CHO-WBL; 16 µg/mL, 19 h, without S9).
`CC1(C)CCC(c2ccc(Cl)cc2)=C(CN2CCN(c3ccc(C(=O)NS(=O)(=O)c4ccc(N[C@H](CCN5CCOCC5)CSc5ccccc5)c(S(=O)(=O)C(F)(F)F)c4)cc3)CC2)C1`: “fraction of dose absorbed” 1.34 ± 0.86% (Caco-2 C2BBe1 monolayers; pulse-chase lymph lipoprotein secretion; medium; 50 % of saturated solubility, 2 h, chylomicron peak interval, control).
For `CC(C)(c1ccc(O)cc1)c1ccc(O)cc1`, the viable cells was 46.7 ± 11.3% (HepG2 spheroids, dissociated; annexin V-FITC/PI flow cytometry; 0.10 µM, 96 h).
The CC50 of `O=C(O)c1cccc(Cc2ccc3cc[nH]c3c2)c1` is reported as over 500 µM (HL2/3 and TZM-bl co-culture; 6 h, 0% serum).
`NCc1cc2c(cc1F)C(=O)N(C1CCC(=O)NC1=O)C2` (stereo not shown) gave a minimum viability of 30.2 ± 7.95% (Hep3B; CellTiter-Glo; concentration not given, 72 h).
The viability of `CCc1nc(N)nc(N)c1-c1ccc(Cl)cc1` is reported as 101% (uninfected human foreskin fibroblasts; MTT; 5 µM, 48 h).
With `CCCCCC(O)C=CC=O` (stereo not shown) the cell death was about 70% (rat primary cortical neurons; MTT; 100 µM, 20 h).
`O=C(c1cc(Cc2n[nH]c(=O)c3ccccc23)ccc1F)N1CCN(C(=O)C2CC2)CC1`: “intracellular concentration increase” over 30% (human PBMC; LC-MS/MS; 10 µM, 1 h, 37 °C, with: 10 µM carboplatin 24 h pretreatment; relative to: water pretreatment).
For `c1csc(CNc2cc[nH]n2)c1`, “cells with numerical aberrations” read 1% (human peripheral blood lymphocytes (female); 1850 µg/mL, 4 h, repeat, with: without S9).
The Kd of `Cn1c(COc2cccc3cccnc23)nnc1SCC(N)=O` is reported as over 100 µM (CDK2 with cyclin A).
With `FC(F)(F)CN1CC(n2cc(Oc3ccn4nc(Cl)cc4n3)cn2)C1` the IC50 was over 512 µM (Hep cells; cytotoxicity).
For `CCCC(CCC)C(=O)O`, “concentration for complete inhibition” read at least 500 µM (WA09 hESC-derived forebrain rosette tissues; rosette emergence; 5 days).
For `Clc1ccc(COc2ccc(CNCc3ccccc3)cc2)cc1`, the cytotoxic concentration was over 50 µM (J774.A1).
For `CC1(F)CN(C(=O)Cn2c(=O)c(C(=O)NCc3ccc(Cl)cc3)cc3nc(N4CCNC4=O)cnc32)C1`, the CC50 was over 40 µM (Vero cells; cell viability, CCK-8; 5 days).
`Fc1ccc(COc2ccccc2CNCc2ccccc2)cc1` gave a cytotoxic concentration of over 12.5 µM (J774.A1).
The TD50 of `O=C(C=Cc1cc(C(=O)c2ccc(OC3CCCC3)cc2O)ccc1OCc1ccc2c(O)noc2c1)NCCOCCOCCOCCOCCOCCOCCOCCNc1cccc2c1C(=O)N(C1CCC(=O)NC1=O)C2=O` (stereo not shown) is reported as 970 µM (TIGK gingival epithelial cells; cell proliferation, CCK-8; 48 h).
`C#CCNS(=O)(=O)c1ccc(CCN(Cc2cc(Cl)ccc2OCCC)C(=O)c2ccc(O)cc2)cc1`: “reduction of viability” 16% (J774.A1; MTT; 10 µM, 4 h).
With `FC1CCN(C2(CNCc3ccc(-c4ccccc4Cl)o3)COC2)C1` (stereo not shown) the viability was 77.3% (HEK; 30 µM, 48 h, 10% FBS; relative to: DMSO).
`CO[C@H]1/C=C/O[C@@]2(C)Oc3c(C)c(O)c4c(c3C2=O)C2=NC3(CCN(CC(C)C)CC3)NC2=C(NC(=O)/C(C)=C\C=C\[C@H](C)[C@H](O)[C@@H](C)[C@@H](O)[C@@H](C)[C@H](OC(C)=O)[C@@H]1C)C4=O` gave an intracellular/extracellular ratio of 3.6 (THP-1 derived macrophages; 30 min).
For `Cc1ncc([N+](=O)[O-])n1CCO`, the CC50 was 275 µM (pigeon embryo fibroblast (PEF)).
The cytotoxicity of `Cc1cc(C(=O)NC(C)(C)COc2cccc3c2C(N)=NS(=O)(=O)N3)cc(C)n1` is reported as 1% (human peripheral blood lymphocytes; CBPI, preliminary test; 2000 µg/mL, 4 h; relative to: vehicle control).
For `CC[C@]1(C)C[C@@H](OC(=O)CSc2nnc(N)[nH]2)[C@]2(C)[C@H](C)CC[C@]3(CCC(=O)[C@H]32)[C@@H](C)[C@@H]1O`, the Emax was 9.42 fold (pooled human hepatocyte co-culture; mRNA induction, measured: CYP2B6 mRNA; 48 h; relative to: vehicle).
`CCC[C@H](CC)Oc1ccc(C(=O)OC)cc1NC(=O)c1nnn(-c2cc(OC)c(OCCCCCCOCCOCC(=O)N[C@H](C(=O)N3C[C@H](O)C[C@H]3C(=O)NCc3ccc(-c4scnc4C)cc3)C(C)(C)C)cc2OC)c1C` — result for “fold enhancement of cytotoxicity”: 3.3 fold (SNU-C4 cells; cell viability; 10 µM, 72 h, with: paclitaxel).
For `O=Cc1cc2c(cc1F)C(=O)N(C1CCC(=O)NC1=O)C2` (stereo not shown), the minimum viability was 33.9 ± 3.92% (Hep3B; CellTiter-Glo; concentration not given, 72 h).
With `c1cc2c(cc1CNCC1(N3CCCC3)COC1)OCCO2` the viability was 98.5% (HEK; 30 µM, 48 h, 10% FBS; relative to: DMSO).
The CC50 of `CC1(CNc2nc(-c3cccs3)nc(Cl)c2-c2c(F)cc(N)cc2F)COC1` is reported as over 20 µM (HEK293, HeLa, HepG2; resazurin; 48 h).
`Clc1cccc(COc2ccccc2CNCc2ccccc2)c1` gave a cytotoxic concentration of over 12.5 µM (J774.A1).
For `N=C(N)NCCC[C@H](NC(=O)[C@H](Cc1ccccc1)NC(=O)CCCC(N)=O)C(=O)c1nc2ccccc2s1`, cytotoxicity read “not toxic” (Vero E6; CellTiter-Glo; 10 µM, 24 h; relative to: DMSO).
For `Cc1cn([C@H]2C[C@H](N=[N+]=[N-])[C@@H](CO)O2)c(=O)[nH]c1=O`, the TC50 was over 0.5 µM (human PBMC; cytotoxicity, XTT).
`C#CCS(=O)(=O)c1ccc(CCN(Cc2cc(Cl)ccc2OCCC)C(=O)Cc2ccsc2)cc1` — result for “reduction of viability”: 19% (J774.A1; MTT; 10 µM, 4 h).
For `COC[C@@H](CC(C)C)NC(=O)c1ccc(C)c(C)c1`, “mean mitotic index” read 5.6 (primary human lymphocytes; 322 µg/mL, 4 (unit not given), with S9).
The CC50 of `CO[C@@H]1[C@H](OC(=O)/C=C/C=C/C=C/C=C/C(=O)O)CC[C@]2(CO2)[C@H]1[C@@]1(C)O[C@@H]1CC=C(C)C` is reported as 280 µM (pigeon embryo fibroblast (PEF)).
`C[S+](C)[O-]` gave a cytotoxic level of over 1 % v/v (WA09 hESC-derived forebrain rosette tissues; neural induction; concentration not given).
The viability fraction of `COc1cc2ncnc(Nc3ccc(Oc4ccccc4)c(C)c3C)c2cc1OC.Cl` is reported as 0.979 (LoVo (KRAS G13D); resazurin; 0.1 µM, 72 h, with: trametinib 0 nM; relative to: DMSO).
With `Clc1ccccc1-c1ccc(CNCC2(N3CCCC3)COC2)o1` the viability was 87.3% (HEK; 30 µM, 48 h, 10% FBS; relative to: DMSO).
For `Cc1cc(NC(=O)Nc2ccc3c(c2)OC(F)(F)O3)cc(C(F)(F)F)n1`, the IC50 was 5.9 to 11 µM (primary mouse macrophages; cytotoxicity).
`CC(Sc1nc2ccccc2[nH]1)C(=O)Nc1ccc(S(N)(=O)=O)cc1` (stereo not shown) gave a Kd of over 100 µM (CDK2 with cyclin A).
